{"data": "Experimental data of several laboratories", "note": "Parts stem from different laboratories: compare values within a part only. Several values in a cell are separate wells, animals, samples, runs or records.", "UniProt P35348, sequence (whole entry, looked up)": "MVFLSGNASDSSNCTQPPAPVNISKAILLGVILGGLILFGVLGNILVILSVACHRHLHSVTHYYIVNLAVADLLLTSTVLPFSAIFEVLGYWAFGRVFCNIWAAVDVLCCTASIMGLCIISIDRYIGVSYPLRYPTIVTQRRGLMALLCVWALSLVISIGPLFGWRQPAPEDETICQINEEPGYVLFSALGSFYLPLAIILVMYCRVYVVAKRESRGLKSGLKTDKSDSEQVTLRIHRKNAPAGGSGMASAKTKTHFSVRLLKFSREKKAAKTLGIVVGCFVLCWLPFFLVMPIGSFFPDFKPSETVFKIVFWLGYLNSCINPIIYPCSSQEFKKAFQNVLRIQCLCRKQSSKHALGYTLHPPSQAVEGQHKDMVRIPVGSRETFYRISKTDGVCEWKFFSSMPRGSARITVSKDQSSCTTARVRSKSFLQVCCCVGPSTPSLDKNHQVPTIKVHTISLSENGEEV", "UniProt O43293, sequence (whole entry, looked up)": "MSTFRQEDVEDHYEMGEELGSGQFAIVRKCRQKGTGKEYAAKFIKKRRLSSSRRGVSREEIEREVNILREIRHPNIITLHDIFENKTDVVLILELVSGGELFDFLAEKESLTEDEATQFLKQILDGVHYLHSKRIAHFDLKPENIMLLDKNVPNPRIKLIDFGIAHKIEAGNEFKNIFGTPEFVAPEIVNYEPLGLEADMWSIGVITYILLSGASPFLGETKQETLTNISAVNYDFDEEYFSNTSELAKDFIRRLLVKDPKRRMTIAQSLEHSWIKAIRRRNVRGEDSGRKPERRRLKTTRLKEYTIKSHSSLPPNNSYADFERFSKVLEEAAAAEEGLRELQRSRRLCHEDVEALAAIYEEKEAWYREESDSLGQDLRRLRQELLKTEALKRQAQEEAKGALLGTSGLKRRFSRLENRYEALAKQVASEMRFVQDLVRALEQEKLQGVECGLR"}
{"data": "Study 1", "target": "Calcium/calmodulin-dependent protein kinase type II subunit alpha (CAMK2A, Homo sapiens, UniProt Q9UQM7)", "observed": "enzyme activity", "mode": "inhibitor", "tested at": "10 µM", "UniProt Q9UQM7, sequence (whole entry, looked up)": "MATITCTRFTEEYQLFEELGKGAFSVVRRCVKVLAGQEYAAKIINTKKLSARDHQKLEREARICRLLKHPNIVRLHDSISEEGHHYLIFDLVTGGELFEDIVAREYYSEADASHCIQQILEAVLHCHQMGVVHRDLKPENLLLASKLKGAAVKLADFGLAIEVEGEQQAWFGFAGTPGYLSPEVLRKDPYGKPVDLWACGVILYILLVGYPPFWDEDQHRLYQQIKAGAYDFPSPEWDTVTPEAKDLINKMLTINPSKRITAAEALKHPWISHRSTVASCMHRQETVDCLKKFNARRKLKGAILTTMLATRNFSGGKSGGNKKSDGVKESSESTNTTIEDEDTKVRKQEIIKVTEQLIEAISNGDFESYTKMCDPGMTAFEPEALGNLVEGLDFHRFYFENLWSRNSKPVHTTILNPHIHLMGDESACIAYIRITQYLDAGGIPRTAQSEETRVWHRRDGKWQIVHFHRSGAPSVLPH"}
{"Structure (SMILES)": "NCCCCCCCC(=O)O", "inhibition [%]": 26}
{"Structure (SMILES)": "Cc1ccc(C(=O)C(C)CN2CCCCC2)cc1 (stereo not shown)", "inhibition [%]": -6}
{"Structure (SMILES)": "Oc1ccc(C2CNCCc3c2cc(O)c(O)c3Cl)cc1 (stereo not shown)", "inhibition [%]": 6}
{"Structure (SMILES)": "COC(=O)C1=C(C#N)NC(C)=C(C(=O)OC(C)C)C1c1cccc([N+](=O)[O-])c1 (stereo not shown)", "inhibition [%]": -5}
{"Structure (SMILES)": "COc1cc(OC)c(CCC(=O)c2ccc(O)cc2)c(OC)c1", "inhibition [%]": 41}
{"Structure (SMILES)": "CC(=O)N[C@H]1[C@H]([C@H](O)[C@H](O)CO)O[C@](O)(C(=O)O)C[C@@H]1O", "inhibition [%]": -21}
{"Structure (SMILES)": "COc1cc2c(cc1OC)[C@@H]1Cc3ccc(OC)c(OC)c3C[N@@+]1([O-])CC2", "inhibition [%]": 4}
{"Structure (SMILES)": "C[C@@H]1O[C@@H](OCCC(=O)O)[C@H](O)C[C@H]1O", "inhibition [%]": 34}
{"Structure (SMILES)": "CC(C)[C@@H](C)/C=C/[C@@H](C)[C@H]1CC[C@H]2[C@@H]3CC=C4C[C@@H](O)CC[C@]4(C)[C@H]3CC[C@]12C", "inhibition [%]": -45}
{"data": "Study 2", "target": "Macrophage colony-stimulating factor 1 receptor (CSF1R, Homo sapiens, UniProt P07333)", "observed": "enzyme activity", "mode": "inhibitor", "tested at": "0.5 µM", "relative to": "control", "UniProt P07333, sequence (whole entry, looked up)": "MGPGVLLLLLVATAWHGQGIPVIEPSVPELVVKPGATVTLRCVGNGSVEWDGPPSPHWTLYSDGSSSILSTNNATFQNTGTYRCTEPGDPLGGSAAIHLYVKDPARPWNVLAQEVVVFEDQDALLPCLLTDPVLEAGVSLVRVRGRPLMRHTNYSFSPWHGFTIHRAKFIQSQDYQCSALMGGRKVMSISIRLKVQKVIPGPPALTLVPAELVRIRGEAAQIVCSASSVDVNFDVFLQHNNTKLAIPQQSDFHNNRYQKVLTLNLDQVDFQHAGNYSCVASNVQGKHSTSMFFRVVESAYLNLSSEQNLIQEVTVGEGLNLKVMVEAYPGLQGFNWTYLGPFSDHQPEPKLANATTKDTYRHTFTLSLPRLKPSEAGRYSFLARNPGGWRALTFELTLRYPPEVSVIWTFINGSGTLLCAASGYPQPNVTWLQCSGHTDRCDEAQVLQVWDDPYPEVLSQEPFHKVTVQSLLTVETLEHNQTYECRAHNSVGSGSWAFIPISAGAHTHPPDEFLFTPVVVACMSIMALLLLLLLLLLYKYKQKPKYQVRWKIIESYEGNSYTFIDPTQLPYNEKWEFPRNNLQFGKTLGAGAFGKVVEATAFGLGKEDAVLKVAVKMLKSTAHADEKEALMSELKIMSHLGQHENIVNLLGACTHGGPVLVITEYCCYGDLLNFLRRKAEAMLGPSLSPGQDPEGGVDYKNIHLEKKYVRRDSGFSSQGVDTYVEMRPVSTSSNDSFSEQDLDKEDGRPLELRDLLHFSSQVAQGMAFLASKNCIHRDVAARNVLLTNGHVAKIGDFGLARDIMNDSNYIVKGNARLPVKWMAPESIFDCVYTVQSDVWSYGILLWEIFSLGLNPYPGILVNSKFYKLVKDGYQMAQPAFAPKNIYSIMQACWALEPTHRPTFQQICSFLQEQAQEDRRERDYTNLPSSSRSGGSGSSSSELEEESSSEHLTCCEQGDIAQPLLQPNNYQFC"}
{"SMILES": "Oc1ccc(Nc2nc(-c3ccc(Cl)cc3)cs2)cc1", "remaining activity": "104%"}
{"SMILES": "O=S(=O)(NCCNC/C=C/c1ccc(Br)cc1)c1cccc2cnccc12", "remaining activity": "97.7%"}
{"SMILES": "Nc1nc(Nc2ccc(S(N)(=O)=O)cc2)nn1C(=O)c1c(F)cccc1F", "remaining activity": "49.2%"}
{"SMILES": "CCc1[nH]c(-c2ccc(OC)cc2)nc1-c1ccncc1", "remaining activity": "100%"}
{"SMILES": "CC#CC(=O)Nc1cc2c(Nc3ccc(F)c(Cl)c3)ncnc2cn1", "remaining activity": "101%"}
{"SMILES": "Cc1cc(Nc2nc(-c3ccccc3)nc3ccccc23)n[nH]1", "remaining activity": "33.1%"}
{"SMILES": "CCCC(=O)Oc1ccc2[nH]c(C(=O)c3cc4ccccc4[nH]3)cc2c1", "remaining activity": "103%"}
{"SMILES": "Fc1ccc(-c2nc3n(c2-c2ccncc2)CCS3)cc1", "remaining activity": "103%"}
{"SMILES": "CC(=O)c1ccc(N2CCOCC2)cc1O", "remaining activity": "100%"}
{"SMILES": "Cc1cncc2cccc(S(=O)(=O)N3CCCN(C(=O)CN)C[C@@H]3C)c12", "remaining activity": "95.6%"}
{"SMILES": "COc1cc(Nc2c(C#N)cnc3cc(OCCCN4CCN(C)CC4)c(OC)cc23)c(Cl)cc1Cl", "remaining activity": "43.1%"}
{"SMILES": "O=C1NC(=O)C(c2c[nH]c3ccccc23)=C1c1c[nH]c2ccccc12", "remaining activity": "93.7%"}
{"SMILES": "Nc1ncnc2c1cnn2-c1ccccc1", "remaining activity": "105%"}
{"SMILES": "O=C1Cc2c([nH]c3ccc([N+](=O)[O-])cc23)-c2ccccc2N1", "remaining activity": "51%"}
{"SMILES": "CC[n+]1c(/C=C/N(C)c2ccccc2)n(-c2ccccc2)c2ccc(-c3nc4ccccc4s3)cc21", "remaining activity": "108%"}
{"SMILES": "NC(=O)c1ccc(N(C(N)=O)c2c(F)cccc2F)nc1-c1ccc(F)cc1F", "remaining activity": "109%"}
{"SMILES": "CC(C)(C)n1nc(Cc2cccc3ccccc23)c2c(N)ncnc21", "remaining activity": "99.9%"}
{"SMILES": "CSc1nc(-c2ccnc(N[C@@H](C)c3ccccc3)c2)c(-c2ccc(F)cc2)[nH]1 (racemic)", "remaining activity": "104%"}
{"SMILES": "N#CC(=C(N)Sc1ccc(N)cc1)c1ccccc1C(F)(F)F", "remaining activity": "101%"}
{"data": "Study 3", "host": "mouse", "medium": "microsomes or S9", "tested at": "2 µM", "time": "0.5 h"}
{"Compound": "Cn1c(CN2CCc3ccccc3C2)cc(=O)c(O)c1CN1CCOC(c2ccccc2)C1 (stereo not shown)", "remaining compound [%]": 37.9}
{"Compound": "COC(=O)c1c(C)nc2c(c1OS(=O)(=O)C(F)(F)F)CCN2C", "remaining compound [%]": 0.163}
{"Compound": "CC1(C)C=C(N(Cc2ncc[nH]2)c2ccc(Cl)cc2Cl)c2ncccc2O1", "remaining compound [%]": 0.00562}
{"Compound": "Cc1ncc(-c2ccc(C)c(S(=O)(=O)NC(C)(C)C)c2)o1", "remaining compound [%]": 5.47}
{"Compound": "CC(=O)c1ccc2[nH]c3c(C(C)=O)cc(Cl)cc3c2c1", "remaining compound [%]": 87.5}
{"Compound": "Cn1c(=O)c2c(-c3ccccc3Br)n(-c3ccc4c(c3)nc(CO)n4C)cc2n(C)c1=O", "remaining compound [%]": 23.3}
{"Compound": "Cc1csc(N2N=C(c3ccccc3)CC2c2ccccc2C)n1 (stereo not shown)", "remaining compound [%]": 0.0648}
{"Compound": "Cc1nc2sc(C(=O)NC(C)(C)C)c(N)c2c(C)c1C", "remaining compound [%]": 4.39}
{"Compound": "O=C(CNC(=O)Cc1ccccc1)NCC(=O)OCc1cccc(C(=O)c2ccccc2)c1", "remaining compound [%]": 1.15}
{"Compound": "CC(C)n1cc(CNS(=O)(=O)c2cc(F)cc(Cl)c2)nn1", "remaining compound [%]": 2.42}
{"Compound": "CC(C)(C)NS(=O)(=O)c1ccc(CCC(=O)N2CCCCCC2)cc1", "remaining compound [%]": 2.2}
{"data": "Other studies, line by line"}
{"Structure (SMILES)": "C[C@H](c1cccc(C#N)c1)n1cc(Cl)cc(C(N)=O)c1=N", "tested on": "Alpha-1A adrenergic receptor (ADRA1A, Homo sapiens, UniProt P35348)", "assay": "binder, radioligand binding", "measurement": "Ki", "result": "6.77 nM"}
{"Structure (SMILES)": "O=C1NC(c2ccccn2)Sc2ccccc21 (stereo not shown)", "tested on": "Death-associated protein kinase 3 (DAPK3, Homo sapiens, UniProt O43293)", "assay": "binding, competition with immobilised ligand", "measurement": "Kd", "result": "> 10000 nM"}
{"Structure (SMILES)": "Cn1cncc1[C@@](O)(COc1ccc(C#N)cc1-c1ccc(OC(F)(F)F)cc1)c1ccc(C#N)cc1", "tested on": "HEK293T", "assay": "high-content imaging", "setting": "10 µM, 12 h", "measurement": "normal cells", "result": "93.7% and 85.7%"}
{"Structure (SMILES)": "C[C@@H]1CN(c2cc(-c3n[nH]c4ccc(OC5(C)CC5)cc34)ncn2)C[C@H](C)O1", "tested on": "U2OS, HEK293T, MRC-9", "assay": "high-content imaging", "setting": "concentration not given, 24 h, recommended concentration, one cell line", "measurement": "increased mitochondrial mass", "result": "> 50%"}
{"note": "For quick reference, copied from above (study 2):"}
{"SMILES": "Cc1cc(Nc2nc(-c3ccccc3)nc3ccccc23)n[nH]1", "remaining activity": "33.1%"}
{"SMILES": "CCCC(=O)Oc1ccc2[nH]c(C(=O)c3cc4ccccc4[nH]3)cc2c1", "remaining activity": "103%"}
{"SMILES": "Fc1ccc(-c2nc3n(c2-c2ccncc2)CCS3)cc1", "remaining activity": "103%"}
{"SMILES": "CC(=O)c1ccc(N2CCOCC2)cc1O", "remaining activity": "100%"}
{"SMILES": "Cc1cncc2cccc(S(=O)(=O)N3CCCN(C(=O)CN)C[C@@H]3C)c12", "remaining activity": "95.6%"}
{"SMILES": "COc1cc(Nc2c(C#N)cnc3cc(OCCCN4CCN(C)CC4)c(OC)cc23)c(Cl)cc1Cl", "remaining activity": "43.1%"}
